Measurements pooled from the literature.
Every numbered part comes from another study and shows a few of its results, in no order.

Series 1
Target: Histone acetyltransferase KAT6A, winged helix 2, GST fusion (KAT6A, Homo sapiens, UniProt Q92794, residues 85-181)
Technique: protein binding microarray
Form: double-stranded DNA, one strand shown
Medium: in vitro
Tested at: not given
Setting: 8-mer, flanks averaged, mean of 2 arrays, mostly near background
Reference: not given
Direction: higher = stronger binding
Measurement: E-score
Target sequence (chain): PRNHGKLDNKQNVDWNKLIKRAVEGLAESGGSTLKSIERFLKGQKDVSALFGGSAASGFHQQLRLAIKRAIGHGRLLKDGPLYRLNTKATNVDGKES
ACATATGG: -0.248
GTTATAAC: -0.106
CCCCAATC: -0.0608
ACCAGTGG: -0.108
AAAGATCT: -0.0773
CAGGGCGC: 0.208
GACCTAAA: 0.0396
GATGGACA: -0.0603
AAAAGCCT: -0.0628
AGCTTCGC: 0.124
AGTGTGAT: -0.0321
CGGTTCTC: -0.0365
CATGGCAC: 0.00273
GGTCAGTA: -0.0493
CCCATCCA: 0.0354
ATACCTAC: -0.0311
CGCTTGAC: 0.0318
CGCAGGCA: 0.177
ATATAAAG: -0.0494

Series 2
Target: Phosphate system positive regulatory protein PHO4, full length, GST-tagged (PHO4, Saccharomyces cerevisiae, UniProt P07270, residues 1-312)
Technique: competition protein-binding microarray
Form: double-stranded DNA, one strand shown
Medium: in vitro
Tested at: 2 µM
Setting: whole 60-bp probe, lowest competitor level
With: Cbf1 competitor, 0.05 µM
Direction: higher = stronger binding
Measurement: fluorescence intensity
Shared flanks, not repeated: … GTCTTGATTCGCTTGACGCTGCTG
Residues (chain): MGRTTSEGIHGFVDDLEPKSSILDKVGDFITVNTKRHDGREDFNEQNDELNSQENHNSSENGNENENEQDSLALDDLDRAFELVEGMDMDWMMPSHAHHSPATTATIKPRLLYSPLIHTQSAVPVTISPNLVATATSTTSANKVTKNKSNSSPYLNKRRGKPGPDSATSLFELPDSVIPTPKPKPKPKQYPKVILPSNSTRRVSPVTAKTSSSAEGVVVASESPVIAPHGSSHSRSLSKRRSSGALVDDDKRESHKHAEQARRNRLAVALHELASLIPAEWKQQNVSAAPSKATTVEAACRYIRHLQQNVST
AAAGCGGTAATTTGTTCGGTGGGTGCAGATATCTAT: 4110 a.u.
ACATTGTCCCTATTTCACGTGGCCGAATGACACAGT: 15400 a.u.
CGTCCTAGTGATTGTCACTGGACTTCCATGAGGAAG: 4310 a.u.
CTTTCCCGATCTTGGTCCGTGGGTGTAGCACATTTG: 7530 a.u.
GCATAAGGAGTGGCCCATGTGTGCCAAAACTCTTCT: 10100 a.u.
CTTTCCCGATCTTTTCACGTGGCTTTAGCACATTTG: 12600 a.u.
CATCGCACCCTGACATTCGTGACAAAATAAGAACAA: 4850 a.u.
GTCTTGTCTCATTGATGGGTGGGTGTCCCCACTTCA: 5410 a.u.
GGGCTGTAGCTTGGCGACGTGGGACAGTAGGAAGGC: 6560 a.u.
CATACCCAACCTTGAGGAGTGGGTGAAGATATTTGT: 4600 a.u.
CTACCGTCAAATATACACGTGTAGTCCCTGGATTTG: 17500 a.u.
AGCGACCTTCTTGGCACCGTGCTTTTTGGCGACCTT: 7770 a.u.
TCATGCTAAAAATGAGGCGTGGGACAATATTCAGTA: 8280 a.u.
CTTTCCCGATCTTGTATGGTGGGTGTAGCACATTTG: 4790 a.u.
AATGTTTCTTCCCAACAAATGCAAGAAGTCAGAAAG: 2700 a.u.
TTGACAATGTCGAGTCACGTGCAAAACAATTCAAGT: 16700 a.u.
CTTTCCCGATCTTGCATCGTGGGTGTAGCACATTTG: 11100 a.u.
CATACCCAACCTTGTCACGTCACTTAAGATATTTGT: 4760 a.u.
GGTATGTTCTGCAACAGCGTGCCAGTCTCTTGGCCC: 9340 a.u.
CGACCATTTTATCGGCACGCTTCCGCAAGTTGGTTC: 8830 a.u.
GACAGAAAAATTTGTCACGTGACGGGAAAAGTTACG: 14800 a.u.
TAATAATTCTTGTTCCTCGTGGCCGAATGGTTACGG: 11800 a.u.
CTAACGAAGGTTTGATTGGTGGGTGACAAGCCAAGT: 3760 a.u.
GCAGCACAATCTCCCGTAGAATTATCAAGAATGTTT: 3890 a.u.
CTAACGAAGGTTTTTCACGTGATGTACAAGCCAAGT: 12700 a.u.

Series 3
Target: RNA binding protein fox-1 homolog 2, RRM domain, GST-SBP tag (RBFOX2, Homo sapiens, UniProt O43251-10, residues 100-194)
Technique: RNA Bind-n-Seq
Form: RNA
Medium: in vitro
Tested at: 365 nM
Setting: natural RNA segment, single round, ends assumed
Reference: no-protein control
Direction: higher = stronger binding
Measurement: RBNS enrichment (R)
Shared flanks, not repeated: GGGAGUUCUACAGUCCGACGAUC … UGGAAUUCUCGGGUGCCAA
Target sequence (chain): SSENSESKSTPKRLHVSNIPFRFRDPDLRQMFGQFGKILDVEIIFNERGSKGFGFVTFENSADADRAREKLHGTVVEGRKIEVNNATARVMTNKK
CUGUCUGCUUCAUUCCUGUUUAAUACAGAUUACCAUUCCUAACUCCUCUCUAGCACUUCUCACCACUGAGCCAUCUCUCCAGCCCCAAUAACUUUAUUUUUUAAGACAGG: 0.825
AAAGAAUAAAAAUUGACUUCUUGCUUGUACAUAUAGGAGCAAUACUAUUAUAUUAUGUAGUCCGUUAACACUACUUAAAAGUUUAGGGUUUUCUCUUGGUUGUAGAGUGG: 2.53
CGACACCUCGCUGCCAGGUUGUUUCAGCAAGGACCAGGUGUACCUGGACGGCAUCGUGCGCAUUCUGCGACAUCGCCAGACCAUCGAUUUCCCGUUGCUGACCUCACUGG: 0.639
AGAGAAGUUUGAAUGUUUGUGUCAGUUUUGGGUCAGCCUAGAUAAAGAUGGGAAAGAGGGAGUGUUCCUUAUGUCUUGUUUUGUAAUUGUUUGAGUGGUUUCUAAAAUAU: 0.651
CACCCCAUAGUGGGGGACUGGAGUCGCCUUGGUGCUCAUUCCCUGAGCCCCCCAAUCCUCCUCUGUCUUCCAGCCAACCCACAAAGCUGAAUAUAUGCAAUAUCCGUCCG: 0.435
AAAAAAUAGAGCCUGAGGGAUCUUUACUAGUUAUAAAGAUACAGAACUCUUUCAAAACCUUUUGAAAUUAACCUCUCACUAUACCAGUAUAAUUGAGUUUUCAGUGGGGC: 0.382
AUUCAAUAUAGACUUGCCCAAUUAGCCCAUCGAGCCUCCCUAGGCUUCCCGAUUCUCAGGUCUUCUCGGAGGCAGAUCCCUUCCUGAGCUCCAGGCUCUGACUUCACCGU: 0.236
GUAUUCAAGAAUGCAUGGACCAGUAUAGGUUCGCUCUUGUUUCUACACCUCCAGAAUGAUAGCUGACAUUUUUGUUUUGUUUUUCAGCAGUUGCCAUGAGCCAAACCCUA: 3.21
CUGUUUUGACGGCACAUGUGCCAGUCAAGGGACAUGGGACAGUCGCGCCACUUUGCAUUCCCACGGGACUCAUGUACCUCCCGCAGAGCCGUCCCCGUCAAGGUGUGGGG: 0.203
CUUGAUUGUUUCCAUACCACUCAAGCCUUUGCUUGAAGAACAUGCUCAAUAAAUGUUUCAUGACUGCAGCAAAACCUGGCACCAGGAGUUCUUCAUAUAAAACUCGAUUU: 0.188
AAAGAACAGUGUGACACCAGAAGCCAAGAGAUGGUUUUUACUAACAACAGCUUUGAUGAGUUCCUAUUAAGGUCGUAUUGUGUAUUGUGCCAAAUUUUCCACCCAGUAUA: 0.305
CAUGGAAAUGAUGGCACUGGAGGUGGAGGACCUUGCACGCAUACUCUUUGUGACCACAGGGUUGCAGGACGUUCUUGAAAGAUGUGUCACUAAAUGUUUGUUUUUGCUCA: 3.76

Series 4
Target: Prothrombin, mature alpha-thrombin (F2, Homo sapiens, UniProt P00734)
Technique: aptamer microarray, sandwich
Form: DNA with 2'F-ANA
Medium: in vitro
Tested at: 200 nM
Setting: whole 15-mer aptamer, many near background
With: Cy3 exosite-II aptamer, 400 nM
Direction: higher = stronger binding
Measurement: mean fluorescence intensity
Sequence: GGTTGGTGTGGTTGG
2'F-ANA at 1 2 3 4 5 6 8 11 12 14: 58.2 a.u.
2'F-ANA at 3 5 6 10 12: 60.6 a.u.
2'F-ANA at 3 6 8 9 12 13 14: 546 a.u.
2'F-ANA at 1 2 3 5 6 8 12 13 14: 52.2 a.u.
2'F-ANA at 4 10 13: 67 a.u.
2'F-ANA at 1 4 9 10 12 15: 58.6 a.u.
2'F-ANA at 6 7 8 13 15: 444 a.u.
2'F-ANA at 1 3 4 5 8 12 13 14: 47.1 a.u.
2'F-ANA at 3 5 7 10 11 13 14: 51.3 a.u.
2'F-ANA at 1 2 3 6 9 13 15: 141 a.u.
2'F-ANA at 1 4 9 10 12 13 15: 57.3 a.u.
2'F-ANA at 2 4 8 9 10 13 14: 61.3 a.u.
2'F-ANA at 1 2 5 7 11 12 14 15: 79.1 a.u.
2'F-ANA at 3 5 7 9 11: 104 a.u.
2'F-ANA at 1 3 4 5 6 7 9 10 11 14 15: 50.8 a.u.
2'F-ANA at 1 4 5 8 12 13 14: 73 a.u.
2'F-ANA at 1 2 7 8 15: 254 a.u.
2'F-ANA at 2 7 9 11 12 13: 573 a.u.
2'F-ANA at 1 2 3 4 6 7 8 10: 64 a.u.
2'F-ANA at 1 2 3 4 5 8 10 15: 48.2 a.u.
2'F-ANA at 1 2 3 4 6 7 9 12 14: 64.4 a.u.
2'F-ANA at 1 7 8 9 11 12 13 14 15: 70.8 a.u.
2'F-ANA at 3 7 8 10 11 12 15: 649 a.u.
2'F-ANA at 3 6 7 10 14 15: 385 a.u.
2'F-ANA at 1 5 6 9 11 12 14: 53.2 a.u.

Series 5
Target: Interferon regulatory factor 7, full length, phosphomimetic (IRF7, Homo sapiens, UniProt Q92985, residues 1-503, S101K/S471D/S472D/S475D/S476D/S477D/S483D/S484D/S487D)
Technique: protein-binding microarray
Form: double-stranded DNA, one strand shown
Medium: in vitro
Tested at: 250 nM
Setting: 60-bp whole probe
With: salmon DNA 0.4 mg/ml
Reference: random background probes
Direction: higher = stronger binding
Measurement: log fluorescence
Shared flanks, not repeated: GCCTAGCAC … GTCTTGATTCGCTTGACGCTGCTG
Target sequence (chain): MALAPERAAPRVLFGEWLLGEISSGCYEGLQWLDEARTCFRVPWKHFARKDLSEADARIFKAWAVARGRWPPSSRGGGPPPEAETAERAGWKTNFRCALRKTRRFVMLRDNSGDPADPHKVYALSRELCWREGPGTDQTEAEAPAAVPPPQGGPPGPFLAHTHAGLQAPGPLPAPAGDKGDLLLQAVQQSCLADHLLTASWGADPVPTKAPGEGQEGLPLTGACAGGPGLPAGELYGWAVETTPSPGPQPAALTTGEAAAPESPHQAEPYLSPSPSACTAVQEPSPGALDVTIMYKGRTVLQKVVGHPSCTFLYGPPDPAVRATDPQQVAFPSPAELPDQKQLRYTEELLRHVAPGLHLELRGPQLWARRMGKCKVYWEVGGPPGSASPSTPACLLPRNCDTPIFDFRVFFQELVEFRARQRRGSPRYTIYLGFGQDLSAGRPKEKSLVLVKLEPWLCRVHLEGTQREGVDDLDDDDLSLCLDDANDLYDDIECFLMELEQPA
TTAGATATCAGTTCCGATTAGTGCTAG: 1.12 z-score
TTAGGTCTCGGACTGGGATAGTGCTAG: 0.227 z-score
AATCAACTTTTTTTAATTGAGTGCTAG: 0.0279 z-score
GACGGTTTCGGGTATCGGGGCGTGCTA: 6.87 z-score
TTAGGTATCGGGACTGCGTTAGTGCTA: -0.256 z-score
TCATTCCTGAAATCTCTTACTGTGCTA: 1.07 z-score
GTATATACACTTATGACTTTGTGCTAG: 0.474 z-score
TACGGTTTCGGTTCCGGGACGTGCTAG: 12.2 z-score
GACGGACTGGGTCTTGGGACGTGCTAG: -0.7 z-score
GGCGGTTTCGACTATCGGGACGTGCTA: 5.38 z-score
TTAGGTTTCGGACTGGGTAAGTGCTAG: 4.34 z-score
TTAGGACTGGAATTTCGGTTAGTGCTA: 1.1 z-score
GTGGCCTTTGTTTCCAGGCAGTGCTAG: 0.313 z-score
GACGGTATCCTACTGGTGACGTGCTAG: -0.477 z-score

A few entries again (series 5):
TTAGATATCAGTTCCGATTAGTGCTAG: 1.12 z-score
TTAGGTCTCGGACTGGGATAGTGCTAG: 0.227 z-score
AATCAACTTTTTTTAATTGAGTGCTAG: 0.0279 z-score
GACGGTTTCGGGTATCGGGGCGTGCTA: 6.87 z-score
TTAGGTATCGGGACTGCGTTAGTGCTA: -0.256 z-score
TCATTCCTGAAATCTCTTACTGTGCTA: 1.07 z-score
GTATATACACTTATGACTTTGTGCTAG: 0.474 z-score
TACGGTTTCGGTTCCGGGACGTGCTAG: 12.2 z-score
GACGGACTGGGTCTTGGGACGTGCTAG: -0.7 z-score
GGCGGTTTCGACTATCGGGACGTGCTA: 5.38 z-score
TTAGGTTTCGGACTGGGTAAGTGCTAG: 4.34 z-score
TTAGGACTGGAATTTCGGTTAGTGCTA: 1.1 z-score
GTGGCCTTTGTTTCCAGGCAGTGCTAG: 0.313 z-score
GACGGTATCCTACTGGTGACGTGCTAG: -0.477 z-score
